{"data": "Measured values of several laboratories", "note": "Parts stem from different laboratories: compare values within a part only. Positions count from the first letter of the parent shown."}
{"data": "Series 1", "target": "RING finger protein unkempt homolog, zinc fingers 1-6, GST-SBP tag (UNK, Homo sapiens, UniProt Q9C0B0, residues 30-357)", "method": "RNA Bind-n-Seq", "form": "RNA", "matrix": "in vitro", "concentration": "not given", "notes": "RNA with constant flanks, human and mouse sites, ends assumed", "baseline": "input RNA pool", "direction": "higher = stronger binding", "Target sequence (chain)": "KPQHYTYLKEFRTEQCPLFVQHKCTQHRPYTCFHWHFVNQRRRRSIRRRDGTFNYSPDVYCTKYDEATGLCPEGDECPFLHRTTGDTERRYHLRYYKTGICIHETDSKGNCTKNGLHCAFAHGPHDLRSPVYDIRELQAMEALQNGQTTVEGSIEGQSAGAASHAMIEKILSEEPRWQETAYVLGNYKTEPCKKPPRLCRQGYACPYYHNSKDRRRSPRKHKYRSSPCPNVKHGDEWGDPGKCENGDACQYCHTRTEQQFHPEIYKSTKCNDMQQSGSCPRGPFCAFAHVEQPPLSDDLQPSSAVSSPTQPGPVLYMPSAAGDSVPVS"}
{"Oligonucleotide": "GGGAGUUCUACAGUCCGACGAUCCCCUCAAAUCUUAGAGCGACGUGUUUGCCAGCUGGAGACCACAAUGUGUUCUAUGUAAAUACGUUCCCACUUCAAGACCCGCCUGACGCACCUUUUCCCUCACUGGAUUCCCCAGGAAAGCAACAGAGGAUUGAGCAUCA", "bound/input enrichment [ratio]": 0.28}
{"Oligonucleotide": "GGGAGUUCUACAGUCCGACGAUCGAUGUAAAAAAAAAAAAAAAAAAAAAAAAAAAAACACACACACAGAGGAAAGACGCUCUUUAGGUUUUGUUUUGUUUUUUUUUUUUGGUUUUGUUUUUUGUUUUUUUUACUCUAGGGAAACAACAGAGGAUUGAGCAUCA", "bound/input enrichment [ratio]": 1.32}
{"Oligonucleotide": "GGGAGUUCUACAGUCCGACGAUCAGCAGAUGCCCUCUUGCAGGGUGGAUGAGUCAGGCAGGCAGAACCUCCUUAAGUGGUCCACUUAGUGUUACCAGCAGACUGCAGACACUGCAGAGCAGGAACCUCACUCAGUACCUGUCUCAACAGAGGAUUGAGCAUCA", "bound/input enrichment [ratio]": 0.0475}
{"Oligonucleotide": "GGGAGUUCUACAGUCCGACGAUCCUAACUUUUUGAGUUCACAAUUUACUUGGUCCAGAGUUUUCUAUUCUUUUUUUUUUUUAAACUAAUGAAUGACAUUUAGAUACUUCAUAAAAUUAUGAACAGAUAUGGAGGCCAGAGCUCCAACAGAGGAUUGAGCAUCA", "bound/input enrichment [ratio]": 0.64}
{"Oligonucleotide": "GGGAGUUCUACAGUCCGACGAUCAGGAGAAGUUGAGGGGAGCAUGCUUCCCUGCAGCUGACCGGGUCACACAAAGGCAUGCUGGAGUACCCAGCCUAUCAGGUGCCCCUCUUCCAAAGGCAGCGUGCCGAGCCAGCAAGAGGACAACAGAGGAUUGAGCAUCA", "bound/input enrichment [ratio]": 0.0447}
{"Oligonucleotide": "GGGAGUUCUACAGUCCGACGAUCUUGGUUAAUGUGUUAUUUAUUGAGUAUUGUUUGUGCUAAGCAUUGUGUUAGAUUUAAAAAAUUAGUGGAUUGACUCCACUUUGUUGUGUUGUUUUCAUUGUUGAAAAUAAAUAUAACUUUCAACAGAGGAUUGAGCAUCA", "bound/input enrichment [ratio]": 24.9}
{"Oligonucleotide": "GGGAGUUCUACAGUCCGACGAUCUGUGGCUGCUUUCUUUGGUGCCCUCCCCUCACCCCACUGUAGCUGUGACGUGUUGUAGUUUUUAGAUGUUUGUAAAAUGUUUAAAAAAAUGUUAAAAGGAAAAAAGUGAAAAUAACAAAACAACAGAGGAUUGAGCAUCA", "bound/input enrichment [ratio]": 0.944}
{"data": "Series 2", "target": "ABI1, truncated, D143A, DHFR fusion (Arabidopsis thaliana)", "method": "DHFR PCA, deep sequencing", "matrix": "yeast", "notes": "methotrexate growth selection, single substitutions", "together with": "(+)-ABA 0 µM", "baseline": "wild-type fitted maximum", "direction": "higher = stronger binding", "starting sequence": "PYL1, truncated, DHFR fusion (Arabidopsis thaliana); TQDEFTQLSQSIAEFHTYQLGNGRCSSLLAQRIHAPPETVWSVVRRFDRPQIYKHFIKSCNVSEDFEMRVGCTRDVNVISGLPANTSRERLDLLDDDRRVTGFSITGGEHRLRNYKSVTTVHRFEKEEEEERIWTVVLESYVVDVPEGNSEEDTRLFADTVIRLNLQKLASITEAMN"}
{"Substitution": "E14R", "relative binding score [%]": 5.34}
{"Substitution": "P37F", "relative binding score [%]": 0.619}
{"Substitution": "E125Q", "relative binding score [%]": 40.5}
{"Substitution": "E128S", "relative binding score [%]": 30.8}
{"Substitution": "D75F", "relative binding score [%]": 15.4}
{"Substitution": "Q10E", "relative binding score [%]": 45.3}
{"Substitution": "L94M", "relative binding score [%]": 10.2}
{"data": "Series 3", "target": "CCNB1, cyclin fold, Cln2 fusion (human)", "method": "yeast growth competition, sequencing", "matrix": "yeast", "notes": "weak parent motif", "baseline": "not given", "direction": "higher = stronger binding", "starting sequence": "GMNC docking peptide (human); KNAKRNLSSEFAN"}
{"Substitution": "KNAKRNPSSEFAN [L7P]", "normalised enrichment score": 0.142}
{"Substitution": "KNAKRNLSSEFYN [A12Y]", "normalised enrichment score": 0.181}
{"Substitution": "KNAKRNLSREFAN [S9R]", "normalised enrichment score": 0.643}
{"Substitution": "KNAKRNLSSKFAN [E10K]", "normalised enrichment score": 0.0641}
{"Substitution": "KNAKRDLSSEFAN [N6D]", "normalised enrichment score": -0.461}
{"Substitution": "KNAKRNLSSEYAN [F11Y]", "normalised enrichment score": 0.223}
{"Substitution": "KNAKRNLYSEFAN [S8Y]", "normalised enrichment score": 0.271}
{"data": "Single results of other studies"}
{"Substance": "PhoQ, residues 284 288 289 292 302 303 SLANIV", "target": "PhoP, residues 12 14 15 18 19 IFFTR (Escherichia coli, UniProt P23836)", "assay": "Sort-seq, refers to: YFP reporter", "system": "E. coli", "setting": "PhoQ-PhoP variant library, together with: 10 µM Mg2+", "how to read": "baseline: high Mg2+ state, higher = stronger signaling", "quantity": "fold induction", "result": 8.66}
{"note": "For quick reference, copied from above (series 3):"}
{"Substitution": "KNAKRNLSSEFYN [A12Y]", "normalised enrichment score": 0.181}
{"Substitution": "KNAKRNLSREFAN [S9R]", "normalised enrichment score": 0.643}
